Results pooled from the literature.
Parts stem from different laboratories: compare values within a part only. Several values in a cell are separate wells, animals, samples, runs or records.
Sequence of UniProt P48729 (whole entry, looked up): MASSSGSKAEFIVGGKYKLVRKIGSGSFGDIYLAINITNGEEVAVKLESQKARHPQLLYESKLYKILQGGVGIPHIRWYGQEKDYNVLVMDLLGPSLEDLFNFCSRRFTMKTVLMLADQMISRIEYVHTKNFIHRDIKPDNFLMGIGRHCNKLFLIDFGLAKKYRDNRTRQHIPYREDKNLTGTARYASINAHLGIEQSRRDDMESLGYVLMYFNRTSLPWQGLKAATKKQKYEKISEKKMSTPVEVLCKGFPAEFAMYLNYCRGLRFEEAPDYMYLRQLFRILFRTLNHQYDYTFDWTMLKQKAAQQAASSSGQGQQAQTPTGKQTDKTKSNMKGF

Study 1 — action: degrader; measurement: remaining protein
Structure (SMILES): Cn1cc(-c2cccc(CN3CCC4(CC3)COc3c4ccc4c3CN([C@H]3CCC(=O)NC3=O)C4=O)c2)cn1
GSPT1: Eukaryotic peptide chain release factor GTP-binding subunit ERF3A (GSPT1, Homo sapiens, UniProt P15170)
Sequence of UniProt P15170 (whole entry, looked up): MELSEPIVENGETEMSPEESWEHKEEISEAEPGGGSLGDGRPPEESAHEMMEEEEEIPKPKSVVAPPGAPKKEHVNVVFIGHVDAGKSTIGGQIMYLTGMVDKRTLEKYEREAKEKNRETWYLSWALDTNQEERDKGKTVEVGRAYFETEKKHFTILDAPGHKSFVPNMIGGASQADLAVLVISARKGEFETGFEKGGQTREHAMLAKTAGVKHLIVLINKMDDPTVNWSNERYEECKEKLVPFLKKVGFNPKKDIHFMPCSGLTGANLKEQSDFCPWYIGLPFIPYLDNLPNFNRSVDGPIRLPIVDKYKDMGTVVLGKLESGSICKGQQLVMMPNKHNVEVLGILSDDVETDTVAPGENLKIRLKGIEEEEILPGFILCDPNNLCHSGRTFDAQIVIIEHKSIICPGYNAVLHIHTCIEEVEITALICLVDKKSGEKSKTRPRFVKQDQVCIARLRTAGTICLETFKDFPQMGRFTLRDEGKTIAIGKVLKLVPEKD
CRBN/Zinc finger protein Helios: CRBN/Zinc finger protein Helios (Homo sapiens, UniProt Q96SW2+Q9UKS7)
Sequence of UniProt Q96SW2 (whole entry, looked up): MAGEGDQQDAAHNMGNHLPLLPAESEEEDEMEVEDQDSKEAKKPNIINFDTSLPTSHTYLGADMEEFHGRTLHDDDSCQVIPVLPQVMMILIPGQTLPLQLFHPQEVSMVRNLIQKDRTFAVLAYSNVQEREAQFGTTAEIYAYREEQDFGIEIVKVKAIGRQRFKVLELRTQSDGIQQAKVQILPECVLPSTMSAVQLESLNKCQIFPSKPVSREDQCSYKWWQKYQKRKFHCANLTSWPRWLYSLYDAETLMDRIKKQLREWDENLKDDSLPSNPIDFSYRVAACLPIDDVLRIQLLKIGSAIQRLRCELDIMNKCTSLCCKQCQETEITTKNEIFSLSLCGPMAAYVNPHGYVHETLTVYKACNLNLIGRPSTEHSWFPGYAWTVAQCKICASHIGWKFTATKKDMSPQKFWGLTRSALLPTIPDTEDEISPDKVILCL
Sequence of UniProt Q9UKS7 (whole entry, looked up): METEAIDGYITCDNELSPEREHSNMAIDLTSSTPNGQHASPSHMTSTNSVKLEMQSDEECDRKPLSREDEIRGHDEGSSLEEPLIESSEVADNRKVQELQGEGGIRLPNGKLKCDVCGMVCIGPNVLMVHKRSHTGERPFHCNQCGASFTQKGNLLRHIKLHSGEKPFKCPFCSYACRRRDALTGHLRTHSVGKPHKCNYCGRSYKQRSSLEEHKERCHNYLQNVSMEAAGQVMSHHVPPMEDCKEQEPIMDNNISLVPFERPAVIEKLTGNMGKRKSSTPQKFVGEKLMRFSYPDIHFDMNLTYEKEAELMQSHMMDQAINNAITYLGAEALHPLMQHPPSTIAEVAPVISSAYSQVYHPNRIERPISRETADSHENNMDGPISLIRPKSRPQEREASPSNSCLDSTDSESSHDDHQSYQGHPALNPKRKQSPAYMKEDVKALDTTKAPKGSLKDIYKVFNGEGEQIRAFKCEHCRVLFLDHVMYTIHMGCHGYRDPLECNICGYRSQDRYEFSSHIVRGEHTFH
Zinc finger protein Aiolos: Zinc finger protein Aiolos (Homo sapiens, UniProt Q9UKT9)
Sequence of UniProt Q9UKT9 (whole entry, looked up): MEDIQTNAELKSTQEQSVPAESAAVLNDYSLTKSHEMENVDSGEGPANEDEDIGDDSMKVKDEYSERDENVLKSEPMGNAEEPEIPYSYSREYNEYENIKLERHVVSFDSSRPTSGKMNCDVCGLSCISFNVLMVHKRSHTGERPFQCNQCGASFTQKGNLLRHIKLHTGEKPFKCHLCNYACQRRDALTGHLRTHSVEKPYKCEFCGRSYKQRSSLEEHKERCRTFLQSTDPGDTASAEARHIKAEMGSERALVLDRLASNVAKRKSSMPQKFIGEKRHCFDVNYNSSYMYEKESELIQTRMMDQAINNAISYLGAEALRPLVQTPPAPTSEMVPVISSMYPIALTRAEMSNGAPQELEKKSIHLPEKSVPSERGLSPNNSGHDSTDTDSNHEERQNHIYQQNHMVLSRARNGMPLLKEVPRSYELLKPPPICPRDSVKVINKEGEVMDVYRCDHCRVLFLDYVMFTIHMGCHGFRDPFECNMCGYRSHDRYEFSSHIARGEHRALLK
SALL4: Sal-like protein 4 (SALL4, Homo sapiens, UniProt Q9UJQ4)
Sequence of UniProt Q9UJQ4 (whole entry, looked up): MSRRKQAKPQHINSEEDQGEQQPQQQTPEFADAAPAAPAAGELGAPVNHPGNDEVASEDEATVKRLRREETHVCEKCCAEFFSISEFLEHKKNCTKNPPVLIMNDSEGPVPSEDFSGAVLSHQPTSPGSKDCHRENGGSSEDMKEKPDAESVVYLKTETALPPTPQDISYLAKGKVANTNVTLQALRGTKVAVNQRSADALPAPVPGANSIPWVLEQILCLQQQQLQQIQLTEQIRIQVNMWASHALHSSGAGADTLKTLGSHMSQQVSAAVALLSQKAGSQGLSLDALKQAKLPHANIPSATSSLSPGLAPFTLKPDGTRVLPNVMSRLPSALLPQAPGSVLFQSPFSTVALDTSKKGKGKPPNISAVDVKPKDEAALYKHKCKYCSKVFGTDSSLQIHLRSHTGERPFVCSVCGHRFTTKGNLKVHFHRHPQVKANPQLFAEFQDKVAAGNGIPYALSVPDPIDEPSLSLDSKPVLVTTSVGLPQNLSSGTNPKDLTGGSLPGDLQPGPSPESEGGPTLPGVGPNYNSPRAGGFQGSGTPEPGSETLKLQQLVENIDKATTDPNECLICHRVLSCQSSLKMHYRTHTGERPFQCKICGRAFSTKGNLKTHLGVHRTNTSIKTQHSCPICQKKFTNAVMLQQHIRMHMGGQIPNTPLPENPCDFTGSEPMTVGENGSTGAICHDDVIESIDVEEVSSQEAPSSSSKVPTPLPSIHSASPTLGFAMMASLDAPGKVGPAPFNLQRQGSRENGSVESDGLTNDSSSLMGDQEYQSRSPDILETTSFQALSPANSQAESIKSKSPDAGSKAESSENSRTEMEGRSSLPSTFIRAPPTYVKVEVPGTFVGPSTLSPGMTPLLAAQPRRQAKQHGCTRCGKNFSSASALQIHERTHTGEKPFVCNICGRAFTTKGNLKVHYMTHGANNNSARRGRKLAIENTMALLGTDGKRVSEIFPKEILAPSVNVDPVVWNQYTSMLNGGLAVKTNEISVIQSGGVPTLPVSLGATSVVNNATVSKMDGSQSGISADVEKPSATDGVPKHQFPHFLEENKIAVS
IKZF4: Zinc finger protein Eos (IKZF4, Homo sapiens, UniProt Q9H2S9)
Sequence of UniProt Q9H2S9 (whole entry, looked up): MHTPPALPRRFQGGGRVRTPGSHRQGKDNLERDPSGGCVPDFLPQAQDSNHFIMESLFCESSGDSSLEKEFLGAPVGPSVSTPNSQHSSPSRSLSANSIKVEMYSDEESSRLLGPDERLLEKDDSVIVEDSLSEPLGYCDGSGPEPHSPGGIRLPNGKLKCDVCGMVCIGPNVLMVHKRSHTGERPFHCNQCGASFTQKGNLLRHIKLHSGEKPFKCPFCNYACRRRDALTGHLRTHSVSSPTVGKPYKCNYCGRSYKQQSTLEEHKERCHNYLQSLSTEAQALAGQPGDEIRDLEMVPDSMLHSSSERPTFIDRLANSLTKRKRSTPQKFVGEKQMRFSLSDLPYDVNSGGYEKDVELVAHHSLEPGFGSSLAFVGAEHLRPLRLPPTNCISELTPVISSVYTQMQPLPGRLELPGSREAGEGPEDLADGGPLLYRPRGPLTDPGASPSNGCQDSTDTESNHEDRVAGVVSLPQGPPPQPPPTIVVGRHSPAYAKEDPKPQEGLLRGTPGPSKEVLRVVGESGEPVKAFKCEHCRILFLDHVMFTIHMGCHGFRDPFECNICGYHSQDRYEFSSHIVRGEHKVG
target = GSPT1; assay = HiBiT; test system = HEK293; setting = 370.37 nM; result = 101% and 98.2%
target = CRBN/Zinc finger protein Helios; assay = flow cytometry; test system = Jurkat; setting = 333 nM; result = 41.1% and 39.5%
target = GSPT1; assay = HiBiT; test system = HEK293; setting = 3333.33 nM; result = 100% and 103%
target = GSPT1; assay = HiBiT; test system = HEK293; setting = 0.1694 nM; result = 95.9% and 87.2%
target = Zinc finger protein Aiolos; assay = HiBiT; test system = HEK293; setting = 0.5081 nM; result = 95.7% and 96.4%
target = Zinc finger protein Aiolos; assay = HiBiT; test system = HEK293; setting = 13.72 nM; result = 89.4% and 94.9%
target = SALL4; assay = HiBiT; test system = HEK293; setting = 41.15 nM; result = 65.8% and 90%
target = SALL4; assay = HiBiT; test system = HEK293; setting = 123.5 nM; result = 69.3% and 85.2%
target = CSNK1A1 (Homo sapiens, UniProt P48729); assay = HiBiT; test system = HEK293; setting = 10000 nM; result = 90.2% and 99.2%
target = Zinc finger protein Aiolos; assay = HiBiT; test system = HEK293; setting = 3333.33 nM; result = 87.6% and 88%
target = IKZF4; assay = HiBiT; test system = HEK293; setting = 37.04 nM, 6 h; result = 98.9% and 105%
target = IKZF4; assay = HiBiT; test system = HEK293; setting = 1.372 nM, 3 h; result = 114% and 102%
target = CRBN/Zinc finger protein Helios; assay = flow cytometry; test system = primary human regulatory T cells; setting = 37.04 nM, 3 h; result = 51.3% and 36%
target = CRBN/Zinc finger protein Helios; assay = flow cytometry; test system = primary human regulatory T cells; setting = 4.115 nM, 6 h; result = 68.7% and 59.6%

Study 2 — cell line: U-87 MG; tested at: concentration not given; relative to: DMSO; measurement: log2 fold change
SMILES: CCN1/C(=C/C=C2\CCCC(/C=C/C3=[N+](CC)c4ccccc4C3(C)C)=C2NCCCCCCCCN2CCC(Nc3nc4ccccc4n3Cc3ccc(F)cc3)CC2)C(C)(C)c2ccccc21
assay = refers to: KIZ mRNA; result = 1.68
assay = refers to: HES7 mRNA; result = 2.76
assay = refers to: PSRC1 mRNA; result = -2.55
assay = refers to: ARHGEF17 mRNA; result = -1.31
assay = refers to: LARP1B mRNA; result = 0.988
assay = refers to: CCNA2 mRNA; result = -2.3
assay = refers to: ZHX2 mRNA; result = 1.46
assay = refers to: PALMD mRNA; result = -1.98

Study 3 — measurement: mRNA level ratio
SMILES: COCCCCCCC1CC2C(CCC3(C)C(O)CCC23)c2ccc(O)cc21 (centres unmarked)
cell line = SK-OV-3; assay = microarray, refers to: ADAMTS14; setting = 10 µM; scale = relative to: untreated; result = 1.33
cell line = SK-OV-3; assay = microarray, refers to: ADAMTS8; setting = 50 µM; scale = relative to: untreated; result = 1
cell line = SK-OV-3; assay = microarray, refers to: CCL8; setting = 50 µM; scale = relative to: untreated; result = 42.3
cell line = PANC-1; assay = microarray, refers to: GADD45A; setting = 10 µM; scale = relative to: untreated; result = 1.11
cell line = A549; assay = DNA microarray, refers to: CCL22; setting = 10 µM; scale = relative to: untreated cells; result = 1
cell line = A549; assay = DNA microarray, refers to: GZMK; setting = 50 µM; scale = relative to: untreated cells; result = 13.1
cell line = PANC-1; assay = DNA microarray, refers to: CCL11; setting = 10 µM; scale = relative to: untreated cells; result = 1
cell line = A549; assay = microarray, refers to: GADD45A; setting = 50 µM; scale = relative to: untreated; result = 19.5

Further values, each from its own experiment
Structure (SMILES) = C#CCN1C(=O)C(O)(C(=O)O)Oc2cc(F)ccc21 (centres unmarked); target or system = Arabidopsis thaliana; assay = hypocotyl length; test system = Col-0; setting = 50.0 µg/mL, 7 days, seed germination, dark; measurement = inhibition; result = 61.9%
Structure (SMILES) = N=C(N)NCCCCCCN1CCC23c4c5ccc(O)c4OC2c2nc4ccccc4cc2CC3(O)C1C5 (centres unmarked); assay = modified Racine scale; test system = C57BL/6J mice, male; setting = intracerebroventricular, 100 nmol, 75 min; scale = direction not given; measurement = seizure score; result = 0
